Results gathered from unrelated publications.
Numbered parts are unrelated; each lists some results of a single study. Changes are numbered by the printed parent chain.

Set 1
Target: ABI1, truncated, D143A, DHFR fusion (Arabidopsis thaliana)
Technique: DHFR PCA, deep sequencing
Medium: yeast
Notes: methotrexate growth selection, single substitutions
Together with: (+)-ABA 1.4 µM
Reference: wild-type fitted maximum
Reading: higher = stronger binding
Starting sequence: PYL1, truncated, DHFR fusion (Arabidopsis thaliana); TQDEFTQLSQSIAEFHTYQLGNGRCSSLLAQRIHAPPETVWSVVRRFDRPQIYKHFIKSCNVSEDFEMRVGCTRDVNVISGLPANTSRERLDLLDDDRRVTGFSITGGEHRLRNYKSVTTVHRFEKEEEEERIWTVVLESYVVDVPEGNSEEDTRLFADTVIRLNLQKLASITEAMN
Under “relative binding score”, `Y115P` is recorded as -1.95%.
`A30L`: “relative binding score” 48.1%.
`L8Y` — result for “relative binding score”: 32.6%.
`L164E` — result for “relative binding score”: 5.11%.
`T120A` — result for “relative binding score”: 0.039%.
Under “relative binding score”, `E125C` is recorded as 70.3%.
For `V161K`, “relative binding score” read -0.789%.
`A35G`: “relative binding score” -0.504%.
`P146F` — result for “relative binding score”: -21.9%.
For `C72F`, “relative binding score” read 10.3%.
`H122W`: “relative binding score” -2.77%.
For `L156W`, “relative binding score” read 31%.
`L112N`: “relative binding score” -6.41%.
For `G71N`, “relative binding score” read 0.182%.
`S140W` — result for “relative binding score”: 5.98%.
Under “relative binding score”, `G21I` is recorded as 34.8%.
For `A175L`, “relative binding score” read 32.1%.
`G102D`: “relative binding score” -6.24%.

Set 2
Target: RING finger protein unkempt homolog, zinc fingers 1-6, GST-SBP tag (UNK, Homo sapiens, UniProt Q9C0B0, residues 30-357)
UniProt Q9C0B0, sequence (30-357, looked up): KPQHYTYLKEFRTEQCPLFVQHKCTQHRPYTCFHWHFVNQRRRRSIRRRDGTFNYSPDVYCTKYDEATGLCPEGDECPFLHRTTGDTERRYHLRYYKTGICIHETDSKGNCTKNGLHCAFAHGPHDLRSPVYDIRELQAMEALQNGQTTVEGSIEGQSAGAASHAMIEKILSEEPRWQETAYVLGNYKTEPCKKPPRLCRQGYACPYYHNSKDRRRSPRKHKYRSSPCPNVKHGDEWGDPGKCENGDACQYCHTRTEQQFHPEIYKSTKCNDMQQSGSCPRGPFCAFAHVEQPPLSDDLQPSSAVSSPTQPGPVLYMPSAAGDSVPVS
Technique: RNA Bind-n-Seq
Form: RNA
Medium: in vitro
Concentration: not given
Notes: RNA with constant flanks, human and mouse sites, ends assumed
Reference: input RNA pool
Reading: higher = stronger binding
Shared flanks, not repeated: GGGAGUUCUACAGUCCGACGAUC … CAACAGAGGAUUGAGCAUCA
`UCCUUGGACCCCAGUCAUAUAGGUGACCUGCAAAAAGCAGACACCAGUAGUCAAGGUGCUUUAGUGUUUCUCUCAAAGGACUACGAAAUAGAAAAUCAAAAUCCCCUGGCCUCUCCUACG` has a bound/input enrichment of 2.35 ratio.
The bound/input enrichment of `UCAGAGCAAAAUCCAGCUGCUUCUUAUUAUAAUGUAGAUGUAUUAAAGUAUCAGGUAUCAUCAAAUGGUAUUCAGUCCACUCCUCUGAAUCUUGCAACAUACUGGAAAUGUAGUGCUAGC` is reported as 1.05 ratio.
With `CAGGACACCAUUAGCAGGGGCUCAGAUGACUCAGUGCCAGUUAUUUCAUUUAAAGAUGCUGCUUUUGAUGAUGUCAGUGGUACUGAUGAAGGAAGACCUGAUCUUCUUGUAAAUUUACCU` the bound/input enrichment was 0.802 ratio.
With `GUUUUAAAAAUGAACUUCUCCCGCUACACAGAAGUAACAAAUAUGGUAGUCAGUUUUGUAUUUAGAAAUGUAUUGGUAGCAGGGAUGUUUUCAUAAUUUUCAGAGAUUAUGCAUUCUUCA` the bound/input enrichment was 2.84 ratio.
`UAUUUUUUGUAACCACUGUCUUAAUGGCAAAAUAAUUAUGGUAAAAUACAAGUCUCGUGUUUAUUAUUCCUUAAGAAGUCUGUGUUAUAUUACCACGGAACACCCAAUAAAGCAAAAUGU` gave a bound/input enrichment of 0.306 ratio.
`AAAAGACGACGAACUGGAGGCUCUCUGAGAGGGAAUGCUUCCUCAAGCCAGGUUGAUGAGGGACAGAUGAAUCGCGUGGUUGAGGAGGAUCCACAGCAGCAAGCGAGACAUCAAGAGGAG` has a bound/input enrichment of 0.131 ratio.
`UGAUGCCCAUUUUUUGUGCCUUGUGCUGUUGGAUGGUAACGACCACUCACCAUGUAAACACAGUACCUCAGUUUUCUGUCCACAGCUGCAGUCGCUCUGUCCCUCGUGCUUCACUGUGGG` gave a bound/input enrichment of 0.168 ratio.
For `CAUUUGAAGAGGAACAUUGGUGUUACAGCUGUGGCCUUUAAUAAGGAACUUGAUCCUGUACAGAAACUCUUCGUGGACAAGAUAAGAGAGUACAAAUCAAAGCGACAGGCAUCUGGAGGA`, the bound/input enrichment was 0.445 ratio.

Set 3
Target: Interferon regulatory factor 5, full length, phosphomimetic (IRF5, Homo sapiens, UniProt Q13568-2, residues 1-514, S451D/S453D/S456D/S462D)
Technique: protein-binding microarray
Form: double-stranded DNA, one strand shown
Medium: in vitro
Concentration: 940 nM top
Notes: 60-bp whole probe
Together with: salmon DNA 0.4 mg/ml
Reference: random background probes
Reading: higher = stronger binding
Shared flanks, not repeated: GCCTAGCAC … GTCTTGATTCGCTTGACGCTGCTG
`TTAGGACTGGGCCTGGGTTAGTGCTAG` — result for “fitted relative affinity”: -0.647 z-score.
`TCAATGATCTCTCTGGGACTGTGCTAG`: “fitted relative affinity” -0.178 z-score.
`TTAGGGTTCGGTTCCGGTTAGTGCTAG`: “fitted relative affinity” 1.46 z-score.
`GATGATTTCAGTTTCGAGACGTGCTAG` — result for “fitted relative affinity”: 4.71 z-score.
For `TGTTGGTAATTTTGCTATTTGTGCTAG`, “fitted relative affinity” read -0.135 z-score.
Under “fitted relative affinity”, `CTGCTAGGGCACACAAGTCAGTGCTAG` is recorded as -0.946 z-score.
Under “fitted relative affinity”, `TTACATATCAGACTGGATTAGTGCTAG` is recorded as -0.194 z-score.
Under “fitted relative affinity”, `ATTATGTTTGCTTTGTTCTGGTGCTAG` is recorded as 0.0273 z-score.
For `TCAGTTTCTCCTTTCGGACTGTGCTAG`, “fitted relative affinity” read 5.03 z-score.
`TTAGGTATCGGATTGGGTTAGTGCTAG`: “fitted relative affinity” 4.7 z-score.
`GACGGACTGGGTCTCAGGACGTGCTAG` — result for “fitted relative affinity”: -0.615 z-score.
Under “fitted relative affinity”, `TCAAATTACCTTTTCACACTGTGCTAG` is recorded as 0.746 z-score.
Under “fitted relative affinity”, `GACGGACTGGACTTTCGGAACGTGCTA` is recorded as 0.616 z-score.

Set 4
Target: CCNE2, cyclin fold, Cln2 fusion (human)
Technique: yeast growth competition, sequencing
Medium: yeast
Notes: weak parent motif
Reference: not given
Reading: higher = stronger binding
Starting sequence: PKN2 docking peptide (human); VSAVQKLDFSDTM; partner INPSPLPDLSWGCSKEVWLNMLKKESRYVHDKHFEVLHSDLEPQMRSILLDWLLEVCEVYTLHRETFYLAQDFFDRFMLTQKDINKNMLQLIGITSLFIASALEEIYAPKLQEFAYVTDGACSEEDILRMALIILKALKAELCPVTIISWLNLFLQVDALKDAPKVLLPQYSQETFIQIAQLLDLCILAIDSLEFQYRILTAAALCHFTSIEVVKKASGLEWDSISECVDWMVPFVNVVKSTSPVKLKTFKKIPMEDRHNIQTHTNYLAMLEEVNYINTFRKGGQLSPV
For `VSAVQKLDFFDTM [S10F]`, “normalised enrichment score” read 0.135.
Under “normalised enrichment score”, `VSAVQKLDRSDTM [F9R]` is recorded as 0.204.
`TSAVQKLDFSDTM [V1T]` — result for “normalised enrichment score”: 0.111.
Under “normalised enrichment score”, `VSAVQLLDFSDTM [K6L]` is recorded as -0.434.
For `VSAVQKLDFSDTP [M13P]`, “normalised enrichment score” read -0.584.
For `VSAVQKLDFSDNM [T12N]`, “normalised enrichment score” read -0.207.
`VSAVQKLDASDTM [F9A]` — result for “normalised enrichment score”: -0.0526.
For `VNAVQKLDFSDTM [S2N]`, “normalised enrichment score” read -0.198.
For `VSTVQKLDFSDTM [A3T]`, “normalised enrichment score” read 0.139.
`VSAVQKLGFSDTM [D8G]`: “normalised enrichment score” -0.176.
`VSAVQKLDFSDTF [M13F]` — result for “normalised enrichment score”: -0.164.
For `VSAVQKLDFSYTM [D11Y]`, “normalised enrichment score” read -0.116.
Under “normalised enrichment score”, `VSAVQKLDISDTM [F9I]` is recorded as 0.141.
For `CSAVQKLDFSDTM [V1C]`, “normalised enrichment score” read 0.506.
`VSAVQWLDFSDTM [K6W]`: “normalised enrichment score” 0.505.
`VSASQKLDFSDTM [V4S]`: “normalised enrichment score” -0.479.

Repeated from above (set 4):
For `VSAVQKLDFSYTM [D11Y]`, “normalised enrichment score” read -0.116.
Under “normalised enrichment score”, `VSAVQKLDISDTM [F9I]` is recorded as 0.141.
For `CSAVQKLDFSDTM [V1C]`, “normalised enrichment score” read 0.506.
`VSAVQWLDFSDTM [K6W]`: “normalised enrichment score” 0.505.
